Published values of several laboratories.
Numbered parts are unrelated; each lists some results of a single study.

Study 1
Target: Sal-like protein 4, full length isoform A (SALL4, Homo sapiens, UniProt Q9UJQ4, residues 1-1053)
UniProt Q9UJQ4, sequence (whole entry, looked up): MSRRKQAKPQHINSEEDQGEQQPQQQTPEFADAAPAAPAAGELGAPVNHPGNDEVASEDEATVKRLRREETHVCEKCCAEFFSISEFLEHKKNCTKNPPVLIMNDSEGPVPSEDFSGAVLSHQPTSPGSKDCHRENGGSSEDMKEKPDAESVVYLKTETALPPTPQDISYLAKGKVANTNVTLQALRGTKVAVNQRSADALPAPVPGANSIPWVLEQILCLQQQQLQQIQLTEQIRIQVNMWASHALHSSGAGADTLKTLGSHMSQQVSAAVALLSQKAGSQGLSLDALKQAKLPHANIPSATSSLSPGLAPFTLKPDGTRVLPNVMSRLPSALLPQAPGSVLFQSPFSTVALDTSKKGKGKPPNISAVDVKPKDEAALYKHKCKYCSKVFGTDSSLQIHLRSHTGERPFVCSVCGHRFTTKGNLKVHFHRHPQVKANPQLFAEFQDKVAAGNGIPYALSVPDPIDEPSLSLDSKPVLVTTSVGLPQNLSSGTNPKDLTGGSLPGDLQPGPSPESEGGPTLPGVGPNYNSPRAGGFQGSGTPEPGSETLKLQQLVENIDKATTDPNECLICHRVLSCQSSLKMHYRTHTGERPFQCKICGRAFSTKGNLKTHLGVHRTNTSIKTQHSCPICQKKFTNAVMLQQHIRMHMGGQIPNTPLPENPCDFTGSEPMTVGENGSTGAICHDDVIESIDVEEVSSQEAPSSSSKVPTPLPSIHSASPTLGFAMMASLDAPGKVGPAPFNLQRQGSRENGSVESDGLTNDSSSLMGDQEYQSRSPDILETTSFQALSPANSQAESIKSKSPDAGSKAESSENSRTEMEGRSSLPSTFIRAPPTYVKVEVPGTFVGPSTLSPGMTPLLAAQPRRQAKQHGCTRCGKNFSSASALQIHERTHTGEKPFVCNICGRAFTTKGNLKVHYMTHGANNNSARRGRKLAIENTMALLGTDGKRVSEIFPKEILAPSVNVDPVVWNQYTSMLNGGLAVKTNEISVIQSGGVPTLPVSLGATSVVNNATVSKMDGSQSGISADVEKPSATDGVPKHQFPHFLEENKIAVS
Method: universal PBM
Form: double-stranded DNA, one strand shown
Sample: in vitro
Tested at: 600 nM
Notes: 8-mer, flanks averaged, mean of replicates
Reading: higher = stronger binding
Endpoint: E-score
GTAACTAC: 0.113
CTGCGGAC: -0.291
ACGACAAG: -0.0584
ATGACAGG: -0.0298
AGTGGTCG: -0.18
GACAGACA: 0.00104

Study 2
Target: Prothrombin, mature alpha-thrombin (F2, Homo sapiens, UniProt P00734)
Method: aptamer microarray, sandwich
Form: DNA with 2'F-ANA
Sample: in vitro
Tested at: 200 nM
Notes: whole 15-mer aptamer, many near background
With: Cy3 exosite-II aptamer, 400 nM
Reading: higher = stronger binding
Endpoint: mean fluorescence intensity
Oligonucleotide: GGTTGGTGTGGTTGG
2'F-ANA at 2 5 8 10 12 15: 47.6 a.u.
2'F-ANA at 1 2 5 8 12 14: 51 a.u.
2'F-ANA at 3 5 6 7 9 10 12 15: 62.3 a.u.
2'F-ANA at 1 3 5 11 14: 41.7 a.u.
2'F-ANA at 6 8 12 14: 283 a.u.
2'F-ANA at 1 3 4 7 8 9 10 11 12 13 14: 78.2 a.u.

Study 3
Target: Interferon regulatory factor 5, full length, phosphomimetic (IRF5, Homo sapiens, UniProt Q13568-2, residues 1-514, K96S/S451D/S453D/S456D/S462D)
Method: protein-binding microarray
Form: double-stranded DNA, one strand shown
Sample: in vitro
Tested at: 250 nM
Notes: 60-bp whole probe
With: salmon DNA 0.4 mg/ml
Reference: random background probes
Reading: higher = stronger binding
Endpoint: log fluorescence
GCCTAGCACTTAGGACTGGAGTTTCGGTTAGTGCTAGTCTTGATTCGCTTGACGCTGCTG: 9.26 z-score
GCCTAGCACGCCGATTTCAGTTTCGAGACGTGCTAGGTCTTGATTCGCTTGACGCTGCTG: 7.09 z-score
GCCTAGCACGACGAATTGAGACTGGAGACGTGCTAGGTCTTGATTCGCTTGACGCTGCTG: -0.132 z-score
GCCTAGCACTTAGGTATCGGGTTCCGGTTAGTGCTAGTCTTGATTCGCTTGACGCTGCTG: 3.89 z-score

Single results of other studies
PhoQ, residues 284 288 289 292 302 303 ALSMDL  fold induction (PhoP, residues 12 14 15 18 19 SPWRL (Escherichia coli, UniProt P23836); Sort-seq, measured: YFP reporter; E. coli; PhoQ-PhoP variant library, with: 10 µM Mg2+; reference: high Mg2+ state, higher = stronger signaling): 9.45

A few entries again (study 1):
ATGACAGG: -0.0298
AGTGGTCG: -0.18
